Experimental data from different studies.
± marks the error that the study gave.
cathepsin H: cathepsin H (Capra hircus, UniProt A0A452G5L2)
CASP6: Caspase-6 (CASP6, Homo sapiens, UniProt P55212)
Beta-lactamase ADC-7: Beta-lactamase ADC-7 (Acinetobacter baumannii, UniProt Q6DRA1)
NPY4R: Neuropeptide Y receptor type 4 (NPY4R, Homo sapiens, UniProt P50391)
GBA2: Beta-glucosidase (GBA2, Homo sapiens, UniProt Q9HCG7)
Metallo-beta-lactamase type 2: Metallo-beta-lactamase type 2 (Serratia marcescens, UniProt P52699)
MAPK14: Mitogen-activated protein kinase 14 (MAPK14, Homo sapiens, UniProt Q16539)
Dihydrofolate reductase: Dihydrofolate reductase (Enterococcus faecalis, UniProt Q834R2)
FUT3: FUT3 (Homo sapiens, UniProt P21217)
Aminodeoxyfutalosine nucleosidase: Aminodeoxyfutalosine nucleosidase (Helicobacter pylori, UniProt Q9ZMY2)
EPHA4: Ephrin type-A receptor 4 (EPHA4, Homo sapiens, UniProt P54764)
Nos1: Nitric oxide synthase 1 (Nos1, Rattus norvegicus, UniProt P29476)

COc1cccc(/C=C/C(=N/NC(N)=O)c2ccccc2)c1 — Ki (cathepsin H; competitive inhibitor, Lineweaver-Burk plot; goat liver enzyme; pH 7.0, with: Leu-βNA substrate): 74 ± 0.6 µM
CC(=O)N[C@@H](CCC(N)=O)C(=O)N[C@@H](CC(=O)O)C(=O)N[C@H](C(=O)N[C@@H](CCCNC(=N)N)C(=O)N[C@H](C=O)CC(=O)O)[C@@H](C)O — Ki (CASP6; enzyme activity, inhibitor, fluorescence; pH 7): > 100 µM
O=C(O)c1cccc(CS(=O)(=O)NCc2cn(CB(O)O)nn2)c1 — Ki (Beta-lactamase ADC-7; enzyme activity, inhibitor; with: nitrocefin): 0.31 ± 0.02 µM
COc1ccc(/C=C/C(=N/NC(N)=O)c2ccccc2)cc1 — Ki (cathepsin H; competitive inhibitor, Lineweaver-Burk plot; goat liver enzyme; pH 7.0, with: Leu-βNA substrate): 54 ± 0.3 µM
CC(C)C[C@H](NC(=O)N(CCCN)NC(=O)[C@H](Cc1ccc(O)cc1)NC(=O)CCCCCCC(=O)N[C@@H](Cc1ccc(O)cc1)C(=O)NN(CCCN)C(=O)N[C@@H](CC(C)C)C(=O)N[C@@H](CCCNC(=N)N)C(=O)N[C@@H](Cc1ccc(O)cc1)C(N)=O)C(=O)N[C@@H](CCCNC(=N)N)C(=O)N[C@@H](Cc1ccc(O)cc1)C(N)=O — Ki (NPY4R): 0.385 ± 0.127 µM
CC(OCCCCCN1C[C@H](O)[C@@H](O)[C@H](O)[C@H]1CO)C(C)(C)C (stereo partly drawn) — Ki (GBA2; enzyme activity, inhibitor; HEK293T overexpressing homogenate; with: 4MU-β-D-glucopyranoside): 0.0059 µM
CC[C@H](C)[C@H](NC(=O)[C@H](CCC(N)=O)NC(=O)[C@H](CCCNC(=N)N)NC(=O)[C@H](CC(C)C)NC(=O)[C@@H](NC(=O)[C@H](CCCCN)NC(=O)[C@H](Cc1ccc(O)cc1)NC(=O)[C@H](CCCCN)NC(=O)[C@H](CC(=O)O)NC(=O)[C@H](CCCNC(=N)N)NC(=O)CNC(=O)[C@H](CC(C)C)NC(=O)[C@@H](N)CCCNC(=N)N)[C@@H](C)O)C(=O)N[C@@H](CCCNC(=N)N)C(=O)N[C@@H](CCC(N)=O)C(=O)O — Ki (Lrrk2 (Mus musculus, UniProt Q5S006); enzyme activity, inhibitor, TR-FRET): 1300 µM
CN(C)c1ccc2c(c1)C(=O)N([C@H](CS)C(=O)O)C2=O — Ki (Metallo-beta-lactamase type 2; enzyme activity, inhibitor; Km 4.8 µM, with: chromacef 25 µM): 0.24 ± 0.03 µM
COC(=O)C1(C)C=C(C(=O)OCc2ccccc2)C(=O)CC1 (stereo not drawn) — Ki (MAPK14; ligand displacement, FP): 5.4 µM
COc1cc(Cc2cnc(N)nc2N)cc(/C=C/C(=O)N2N=Cc3ccccc3C2Cc2ccc(C)cc2)c1OC (stereo not drawn) — Ki (Dihydrofolate reductase; enzyme activity, inhibitor; with: dihydrofolate (Km 10.9 µM)): 0.0062 µM
C[C@@H]1O[C@H](OP(=O)(O)OP(=O)(O)OC[C@H]2O[C@@H](n3cnc4c(=O)[nH]c(N)nc43)[C@H](O)[C@@H]2O)[C@@H](F)[C@H](O)[C@@H]1O — Ki (FUT3; enzyme activity, inhibitor): 17.9 µM
COc1ccccc1/C=C/C(=N\NC(N)=O)c1ccccc1 — Ki (cathepsin H; competitive inhibitor, Lineweaver-Burk plot; goat liver enzyme; pH 7.0, with: Leu-βNA substrate): 54 ± 0.3 µM
CNC(=O)C1CCN(c2cc(C)c(F)cc2NC(=O)c2ccc(-c3cc(O)ccc3C)c(C)c2)CC1 — Ki (EPHA3 (Homo sapiens, UniProt P29320); cell-free assay, TR-FRET): 0.045 µM
COc1cc(Cc2cnc(N)nc2N)cc(/C=C/C(=O)N2N=Cc3ccccc3C2c2cccc(F)c2)c1OC (stereo not drawn) — Ki (Dihydrofolate reductase; enzyme activity, inhibitor; with: dihydrofolate (Km 10.9 µM)): 0.0048 µM
CN(C)c1ccc(-n2cc(COC(=O)[C@]3(C)C=C(C(=O)OC(C)(C)C)C(=O)CC3)nn2)cc1 — Ki (MAPK14; ligand displacement, FP): 3.5 µM
CCCCCCSC[C@H]1CN(Cc2c[nH]c3c(N)ncnc23)C[C@@H]1O — Ki (Aminodeoxyfutalosine nucleosidase; enzyme activity, inhibitor; initial): 0.00021 ± 3e-05 µM
COc1cc(Cc2cnc(N)nc2N)cc(/C=C/C(=O)N2N=Cc3ccccc3C2C(C)C)c1OC (stereo not drawn) — Ki (Dihydrofolate reductase; enzyme activity, inhibitor; with: dihydrofolate (Km 10.9 µM)): 0.0038 µM
O=S(=O)(NCc1cn(CB(O)O)nn1)c1ccc(-c2nnn[nH]2)cc1 — Ki (Beta-lactamase ADC-7; enzyme activity, inhibitor; with: nitrocefin): 0.21 ± 0.03 µM
CN(C)c1ccc2c3c(cccc13)C(=O)N(C(CS)C(=O)O)C2=O (stereo not drawn) — Ki (Metallo-beta-lactamase type 2; enzyme activity, inhibitor; Km 4.8 µM, with: chromacef 25 µM): 0.164 ± 0.008 µM
CNC(=O)C1CCN(c2ccccc2NC(=O)c2ccc(-c3ccnc4[nH]ccc34)c(C)c2)CC1 — Ki (EPHA4): > 0.25 µM
CC(C)CN(NC(=O)[C@H](CCCNC(=N)N)NC(=O)[C@H](Cc1ccc(O)cc1)NC(=O)CCCCCCC(=O)N[C@@H](Cc1ccc(O)cc1)C(=O)N[C@@H](CCCNC(=N)N)C(=O)NN(CC(C)C)C(=O)N[C@@H](CCCNC(=N)N)C(=O)N[C@@H](Cc1ccc(O)cc1)C(N)=O)C(=O)N[C@@H](CCCNC(=N)N)C(=O)N[C@@H](Cc1ccc(O)cc1)C(N)=O — Ki (NPY4R): 0.134 ± 0.02 µM
O=P(O)(O)OC[C@H]1O[C@@](O)(C(F)(F)F)[C@H](O)[C@@H](O)[C@@H]1O — Ki (pgmB (Lactococcus lactis, UniProt P71447); enzyme activity, competitive inhibitor): 310 ± 41 µM
Cc1cc(N)nc(C[C@@H]2CNC[C@@H]2OCCCCCc2cc(F)cc(Cl)c2)c1 — Ki (Nos1; enzyme activity, inhibitor; pH 7.4): 0.23 µM
CC(C)OC(=O)C(CS)N1C(=O)c2ccc(N(C)C)cc2C1=O (stereo not drawn) — Ki (Metallo-beta-lactamase type 2; enzyme activity, inhibitor; Km 4.8 µM, with: chromacef 25 µM): 0.0056 ± 0.001 µM
CNC(=O)c1cc(C)ccc1NC(=O)c1ccc(-c2c(C)ccc3[nH]ncc23)c(C)c1 — Ki (EPHA4; enzyme activity, inhibitor): 0.0055 µM
CC(=O)N[C@@H](CC(C)C)C(=O)N[C@@H](CC(=O)O)C(=O)N[C@H](C(=O)N1CCC[C@H]1C(=O)N[C@H](C=O)CC(=O)O)C(C)C — Ki (CASP6; enzyme activity, inhibitor, fluorescence; pH 7): 26.9 µM
COc1cccc(/C=C/C(=O)c2ccccc2)c1 — Ki (cathepsin H; competitive inhibitor, Lineweaver-Burk plot; goat liver enzyme; pH 7.0, with: Leu-βNA substrate): 110 ± 0.07 µM
COc1cc(Cc2cnc(N)nc2N)cc(/C=C/C(=O)N2N=Cc3ccccc3C2c2ccc(F)cc2)c1OC (stereo not drawn) — Ki (Dihydrofolate reductase; enzyme activity, inhibitor; with: dihydrofolate (Km 10.9 µM)): 0.0056 µM
Nc1nc2c(ncn2[C@@H]2O[C@H](COP(=O)(O)OP(=O)(O)O[C@H]3O[C@@H](CNC(=O)c4ccc(-c5ccccc5)cc4)[C@@H](O)[C@@H](O)[C@@H]3F)[C@@H](O)[C@H]2O)c(=O)[nH]1 — Ki (FUT3; enzyme activity, inhibitor): 28.8 µM
CNC(=O)C1CCN(c2ccccc2NC(=O)c2ccc(-c3cc(O)ccc3C)c(OC)c2)CC1 — Ki (EPHA4; enzyme activity, inhibitor): 0.0017 µM
CC(=O)N[C@@H](Cc1c[nH]c2ccccc12)C(=O)N[C@@H](CC(=O)O)C(=O)N[C@@H](CCCNC(=N)N)C(=O)N[C@@H](C)C(=O)N[C@H](C=O)CC(=O)O — Ki (CASP6; enzyme activity, inhibitor, fluorescence; pH 7): 22.9 µM
Cc1cc(N)nc(CC2CNCC2OCCNCC(F)(F)c2ccccc2)c1 (stereo not drawn) — Ki (Nos1; enzyme activity, inhibitor, hemoglobin capture): 0.085 µM
Clc1nc(NCc2cccc3ccccc23)c2ncn(C/C=C/c3ccccc3)c2n1 — Ki (Sult1a1 (Rattus norvegicus, UniProt P17988); enzyme activity, inhibitor; with: 4-methylumbelliferyl sulfate): 0.009 µM
CCN(CC)c1ccc2c(-c3ccc(S(=O)(=O)NCCCCCC(=O)NCc4ccccc4CC(O)CN4CCN(CCSC(c5ccc(F)cc5)c5ccc(F)cc5)CC4)cc3S(=O)(=O)[O-])c3ccc(=[N+](CC)CC)cc-3oc2c1 (stereo not drawn) — Ki (Slc6a4 (Rattus norvegicus, UniProt P31652); binding; Sprague-Dawley rat): 2.92 ± 0.194 µM
CC(C)COCCCCCN1C[C@H](O)[C@@H](O)[C@H](O)[C@@H]1CO — Ki (GBA2; enzyme activity, inhibitor; HEK293T overexpressing homogenate; with: 4MU-β-D-glucopyranoside): 0.0095 µM
Nc1nc2c(ncn2[C@@H]2O[C@H](COP(=O)(O)OP(=O)(O)O[C@H]3O[C@@H](CNC(=O)c4ccccc4)[C@@H](O)[C@@H](O)[C@@H]3F)[C@@H](O)[C@H]2O)c(=O)[nH]1 — Ki (FUT3; enzyme activity, inhibitor): 16.3 µM
Cc1cc(N)nc(C[C@@H]2CNC[C@@H]2OCCC/C=C/c2cccc(F)c2)c1 — Ki (Nos1; enzyme activity, inhibitor; pH 7.4): 0.637 µM
COC(=O)C1(Cc2ccccc2)C=C(C(=O)OC(C)(C)C)C(=O)CC1 (stereo not drawn) — Ki (MAPK14; ligand displacement, FP): 0.5 µM
CNC(=O)C1CCN(c2cc(C)ccc2NC(=O)c2ccc(-c3cc(O)ccc3C)c(C)c2)CC1 — Ki (EPHA4; enzyme activity, inhibitor): 0.005 µM
CS(=O)(=O)NC(=O)[C@H]1O[C@@H](n2cnc3c(N)ncnc32)[C@H](O)[C@@H]1O — Ki (RNASE1 (Bos taurus, UniProt P61823); enzyme activity, inhibitor, fluorescence): 5300 µM
CCCSC[C@H]1CN(Cc2c[nH]c3c(N)ncnc23)C[C@@H]1O — Ki (Aminodeoxyfutalosine nucleosidase; enzyme activity, inhibitor; slow-onset equilibrium): 7e-06 ± 2e-06 µM
CCCCCCCCCC[C@@H]1O[C@@H]1CCCCC(C)C — Ki (pheromone-binding protein 1 (Lymantria dispar, UniProt O16105); binding, competitive fluorescence binding; pH 7.3, pheromone-binding protein 1, with: 1-NPN probe): 2.12 ± 0.01 µM

Repeated from above:
CC(C)OC(=O)C(CS)N1C(=O)c2ccc(N(C)C)cc2C1=O (stereo not drawn) — Ki (Metallo-beta-lactamase type 2; enzyme activity, inhibitor; Km 4.8 µM, with: chromacef 25 µM): 0.0056 ± 0.001 µM
CNC(=O)c1cc(C)ccc1NC(=O)c1ccc(-c2c(C)ccc3[nH]ncc23)c(C)c1 — Ki (EPHA4; enzyme activity, inhibitor): 0.0055 µM
CC(=O)N[C@@H](CC(C)C)C(=O)N[C@@H](CC(=O)O)C(=O)N[C@H](C(=O)N1CCC[C@H]1C(=O)N[C@H](C=O)CC(=O)O)C(C)C — Ki (CASP6; enzyme activity, inhibitor, fluorescence; pH 7): 26.9 µM
